Assay results gathered from unrelated publications.
Numbered parts are unrelated; each lists some results of a single study.

Set 1
Target: RNA binding protein fox-1 homolog 2, RRM domain, GST-SBP tag (RBFOX2, Homo sapiens, UniProt O43251-10, residues 100-194)
Method: RNA Bind-n-Seq
Molecule type: RNA
Sample: in vitro
Tested at: 365 nM
Notes: natural RNA segment, single round, ends assumed
Baseline: no-protein control
Reading: higher = stronger binding
Measurement: RBNS enrichment (R)
All sequences stand within: GGGAGUUCUACAGUCCGACGAUC … UGGAAUUCUCGGGUGCCAA
Construct (chain): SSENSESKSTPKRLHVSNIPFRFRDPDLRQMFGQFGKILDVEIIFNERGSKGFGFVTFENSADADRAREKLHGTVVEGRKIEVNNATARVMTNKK
Sequence = UUCAGAACAUGAGCAGAAGAAUCGUUUUAUGCUAGUUAUUGCAUUCAUGGUUGAAACUCAACUUAGGGAAAGGGUUCCAAUGUAUUAAGCAAUGGGCUGCUUCUCCCCAA; result = 0.601
Sequence = GUCCGCUCAGCACACGCCUUGUUACGAGCAAGUGCCGGCUGGACCCAAGCCCUGCAUCCCCACAUGCGGGGCAGAGGCCCUUCUCUCCGCCAAAUGUCUACACAGUAUAC; result = 0.34
Sequence = CUUCAGGCUCCACAGGCGUCAUGUUGGACUGAGACCUAACUCACUGGACUCAGAGGAGGAAUCGUGGAAAACAAGAGCAAAACUACCCCACACCCCUAUUUCAUGUCUGA; result = 0.36
Sequence = CCUGACCCCAGGUGAUCCACCUGCCUCAGCCUUCCAAAGUGCUGGGAUUACAGGCAUGAGCCACCGUGGCCGGCCAAGAUUUUAAGCCUUCUGAGCCUUGAAAUUGAGGA; result = 0.159
Sequence = UGACUCCUGUCCCCAAGGGAGGCAUUGUGGUCCUGUCCCCUUGGUAGAGCUCCUGAGGUACUGUUCCAGUGAGGGGCAUUAUGAGAGGAGCGGGGCAGCCCAGGAGGUCU; result = 0.685
Sequence = UUGAAAACUGAAAAUGGGAAGGCAACUUGAAGUCAUUGUAUUUGAUUGAAAAUGUUUAAUACAUCUCAUUAUUGACAAAAUAUGUCAUCUUGUAUUUAUUUCAAGGAAAC; result = 0.323
Sequence = GCUUCUUCCCCCCAACCCCUGGCUAUUUUAUAUUAAUGGGGAGAGGGGAUUUUUAAAUGUCAUAAAUUUGAAGAGUGGUGGGUUGCAUUUUCUUCAUGGGUUUAUGUUUU; result = 0.75
Sequence = CUCCUCCUAUCUGGCUUGUGCUCCUCAGGUGGCUGAAGGGGCCACCUUAGUUCUCAUAGAAAUUGUGGACCAAUAGGAUAUGUGCUGUGUAUAACUUUCUUUUUAAACUG; result = 0.506
Sequence = GCUCUUAGGAAAAGAGGCAAACCCACACCCAAAAGUACCUUGUUUUCCUUGGGGAAGAUGCGUGGAGCUGUCCACAGAUAGCCUACCCACUGGAUUGCUACCGCCGUGUG; result = 0.237
Sequence = AAUGUUAAAUUGUUUAUAUUUAAGUAAUUAGCUUAAAAAUAUAGUUUUAUGUUUUGUACAUUAAUUGAUUAAUAAAAUAAUAAUUUUAUGUGAGAAUGUUUUCAAAAAGC; result = 0.652

Set 2
Target: Sal-like protein 4, full length isoform A (SALL4, Homo sapiens, UniProt Q9UJQ4, residues 1-1053)
Sequence of UniProt Q9UJQ4 (whole entry, looked up): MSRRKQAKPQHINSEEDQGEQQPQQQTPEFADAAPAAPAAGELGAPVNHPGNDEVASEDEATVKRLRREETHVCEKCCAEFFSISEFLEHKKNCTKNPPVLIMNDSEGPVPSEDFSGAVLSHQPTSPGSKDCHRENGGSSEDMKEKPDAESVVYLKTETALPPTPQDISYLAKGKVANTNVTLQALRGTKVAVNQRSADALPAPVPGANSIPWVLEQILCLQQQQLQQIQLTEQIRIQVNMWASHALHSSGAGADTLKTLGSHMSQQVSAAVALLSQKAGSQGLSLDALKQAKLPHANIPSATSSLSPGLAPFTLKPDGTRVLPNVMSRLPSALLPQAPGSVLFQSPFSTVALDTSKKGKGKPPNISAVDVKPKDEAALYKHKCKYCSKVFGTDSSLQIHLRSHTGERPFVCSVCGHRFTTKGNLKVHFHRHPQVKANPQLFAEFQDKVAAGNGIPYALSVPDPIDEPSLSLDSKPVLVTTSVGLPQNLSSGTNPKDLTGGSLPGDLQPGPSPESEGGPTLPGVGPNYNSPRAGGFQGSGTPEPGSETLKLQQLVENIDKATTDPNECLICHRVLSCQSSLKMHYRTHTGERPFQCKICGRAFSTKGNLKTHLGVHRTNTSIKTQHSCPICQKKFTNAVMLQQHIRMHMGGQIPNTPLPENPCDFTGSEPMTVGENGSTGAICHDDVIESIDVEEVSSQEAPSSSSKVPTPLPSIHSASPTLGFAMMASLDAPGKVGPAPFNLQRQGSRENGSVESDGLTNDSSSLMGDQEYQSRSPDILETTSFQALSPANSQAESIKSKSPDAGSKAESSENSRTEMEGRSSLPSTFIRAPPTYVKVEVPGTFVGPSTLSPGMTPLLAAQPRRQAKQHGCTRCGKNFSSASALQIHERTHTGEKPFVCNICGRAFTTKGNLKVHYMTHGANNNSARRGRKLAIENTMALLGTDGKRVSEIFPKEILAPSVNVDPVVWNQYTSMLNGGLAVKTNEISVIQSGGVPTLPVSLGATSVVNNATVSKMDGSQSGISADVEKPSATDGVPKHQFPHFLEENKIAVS
Method: universal PBM
Molecule type: double-stranded DNA, one strand shown
Sample: in vitro
Tested at: 600 nM
Notes: 8-mer, flanks averaged, mean of replicates
Reading: higher = stronger binding
Measurement: E-score
Sequence = ACTCGACA; result = -0.0371
Sequence = ACCTGGTC; result = -0.278
Sequence = CCTCGCTA; result = -0.111
Sequence = CTGTGCGA; result = 0.0327
Sequence = CCGCCAGC; result = -0.341
Sequence = ATAACAAG; result = 0.322
Sequence = CCCTCGAC; result = -0.291
Sequence = GAAGTAAC; result = 0.0407
Sequence = TACAAGTA; result = 0.257
Sequence = AAGAATAA; result = 0.294
Sequence = ATGAAAAC; result = 0.314
Sequence = GCTACCCC; result = -0.267
Sequence = CCAGGGGA; result = -0.261

Set 3
Target: Ras GTPase-activating protein-binding protein 1, full length (G3BP1, Homo sapiens, UniProt Q13283)
Sequence of UniProt Q13283 (whole entry, looked up): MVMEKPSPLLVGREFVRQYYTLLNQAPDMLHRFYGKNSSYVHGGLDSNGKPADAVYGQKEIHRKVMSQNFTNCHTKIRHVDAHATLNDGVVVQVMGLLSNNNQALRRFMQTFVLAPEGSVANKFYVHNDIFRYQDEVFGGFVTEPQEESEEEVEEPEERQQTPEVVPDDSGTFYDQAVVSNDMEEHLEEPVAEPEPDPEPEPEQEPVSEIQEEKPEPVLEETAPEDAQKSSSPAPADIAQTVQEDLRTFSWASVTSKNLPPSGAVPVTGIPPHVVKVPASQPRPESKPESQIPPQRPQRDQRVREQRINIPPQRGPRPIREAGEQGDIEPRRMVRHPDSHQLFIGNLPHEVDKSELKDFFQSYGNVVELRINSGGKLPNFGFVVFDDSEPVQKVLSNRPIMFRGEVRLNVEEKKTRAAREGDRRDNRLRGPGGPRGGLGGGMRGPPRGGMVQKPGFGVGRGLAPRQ
Method: RNA Bind-n-Seq
Molecule type: RNA
Sample: in vitro
Tested at: 200 nM
Notes: whole 134-nt RNA, ends assumed
With: 150 mM LiCl
Baseline: input library
Reading: higher = stronger binding
Measurement: log2 enrichment
Each molecule: 7-deaza-guanosine replaces G
All sequences stand within: GGGAGUUCUACAGUCCGACGAUC … UGGAAUUCUCGGGUGUCAAGG
Sequence = CUGUGCUACACAUCGUAUGUACCGAAUCGGGGAAAAAGGGGAAAAAAAGGGGUUUUUGGGGAAAGUAUUAUGUUACGCCGUUCGGAUCUG; result = -0.0198
Sequence = AGUCCUGUGCUACACAUCGUAUGUACCGAAUCGGGGUUUUUGGGGUUUGGGGAGGGGAAAGUAUUAUGUUACGCCGUUCGGAUCUGCACU; result = -0.195
Sequence = UUCCUCAAGUCCUGUGCUACACAUCGUAUGUACCGAAUCGGUGGAGGAGGAAAGUAUUAUGUUACGCCGUUCGGAUCUGCACUUCCAGCA; result = -1.45
Sequence = UGGCCCUGGUGGCAUGCGGGGAGGAAGAGGUGGCCUCAUGGAUCGUGGUGGUCCCGGUGGAAUGUUCAGAGAUGGCCGUGGUGGAGACAG; result = 0.095
Sequence = UCCUCAAGUCCUGUGCUACACAUCGUAUGUACCGAAUCGUGUGUGUGUGUGUAAAGUAUUAUGUUACGCCGUUCGGAUCUGCACUUCCAG; result = 0.723
Sequence = UCCUGUGCUACACAUCGUAUGUACCGAAUCAAAGUGUGUGUGUAAAGUGUGUGUGUAAAAAAGUAUUAUGUUACGCCGUUCGGAUCUGCA; result = -1.24
Sequence = UGGCCCUGGUGGCAUGCGGGGAGGAAGAGGUGGCCUCAUGGAUCAUGGUGGUCCCGGUGGAAUGUUCAGAGGUGGCCGUGGUGGAGACAG; result = -0.0722
Sequence = UUCCUCAAGUCCUGUGCUACACAUCGUAUGUACCGAAUCGGCGGCGGCGGGAAAGUAUUAUGUUACGCCGUUCGGAUCUGCACUUCCAGC; result = 1.23
Sequence = UCCUCAAGUCCUGUGCUACACAUCGUAUGUACCGAAUCGGAAAGGUGGAGGAAAGUAUUAUGUUACGCCGUUCGGAUCUGCACUUCCAGC; result = -0.82
Sequence = CUCAAGUCCUGUGCUACACAUCGUAUGUACCGAAUCGGAAGGAAGGGGAAGGGAAAGUAUUAUGUUACGCCGUUCGGAUCUGCACUUCCA; result = -0.0659
Sequence = AAGUCCUGUGCUACACAUCGUAUGUACCGAAUCGGCCCCGGGGCCCCGGGCCCCGGGAAAGUAUUAUGUUACGCCGUUCGGAUCUGCACU; result = -1.61

Other studies, line by line
Molecule = PhoQ, residues 284 288 289 292 302 303 SLCLSL; target = PhoP, residues 12 14 15 18 19 TQCLL (Escherichia coli, UniProt P23836); test = Sort-seq, measured: YFP reporter; system = E. coli; conditions = PhoQ-PhoP variant library, with: 10 µM Mg2+; scale = baseline: high Mg2+ state, higher = stronger signaling; measurement = fold induction; result = 1.06

Excerpt of the above (set 2):
Sequence = ACCTGGTC; result = -0.278
Sequence = CCTCGCTA; result = -0.111
Sequence = CTGTGCGA; result = 0.0327
Sequence = CCGCCAGC; result = -0.341
Sequence = ATAACAAG; result = 0.322
Sequence = CCCTCGAC; result = -0.291
